Published values gathered from unrelated publications.
Each numbered part is a random draw from the data of one study; scales do not carry over between parts.

Block 1
Target: Histone acetyltransferase KAT6A, both winged helices, GST fusion (KAT6A, Homo sapiens, UniProt Q92794, residues 1-181)
Technique: protein binding microarray
Form: double-stranded DNA, one strand shown
Medium: in vitro
Tested at: not given
Notes: 8-mer, flanks averaged, mean of 2 arrays, mostly near background
Relative to: not given
Direction: higher = stronger binding
Quantity: E-score
Residues (chain): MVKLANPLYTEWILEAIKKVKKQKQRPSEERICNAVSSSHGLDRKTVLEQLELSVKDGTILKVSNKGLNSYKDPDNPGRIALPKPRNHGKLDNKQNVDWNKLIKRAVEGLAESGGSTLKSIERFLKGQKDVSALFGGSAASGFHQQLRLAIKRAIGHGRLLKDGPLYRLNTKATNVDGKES
ACGAGCGT: 0.0669
AATGAAGC: -0.109
TAGTCAAA: -0.184
GTTTTACA: -0.107
AACGGATT: 0.189
AGGCCGCG: 0.278
CAGGGAAC: -0.172
AAATTTCT: -0.169
ACCGTCAA: 0.212

Block 2
Target: Sal-like protein 4, full length isoform A (SALL4, Homo sapiens, UniProt Q9UJQ4, residues 1-1053)
Sequence of UniProt Q9UJQ4 (whole entry, looked up): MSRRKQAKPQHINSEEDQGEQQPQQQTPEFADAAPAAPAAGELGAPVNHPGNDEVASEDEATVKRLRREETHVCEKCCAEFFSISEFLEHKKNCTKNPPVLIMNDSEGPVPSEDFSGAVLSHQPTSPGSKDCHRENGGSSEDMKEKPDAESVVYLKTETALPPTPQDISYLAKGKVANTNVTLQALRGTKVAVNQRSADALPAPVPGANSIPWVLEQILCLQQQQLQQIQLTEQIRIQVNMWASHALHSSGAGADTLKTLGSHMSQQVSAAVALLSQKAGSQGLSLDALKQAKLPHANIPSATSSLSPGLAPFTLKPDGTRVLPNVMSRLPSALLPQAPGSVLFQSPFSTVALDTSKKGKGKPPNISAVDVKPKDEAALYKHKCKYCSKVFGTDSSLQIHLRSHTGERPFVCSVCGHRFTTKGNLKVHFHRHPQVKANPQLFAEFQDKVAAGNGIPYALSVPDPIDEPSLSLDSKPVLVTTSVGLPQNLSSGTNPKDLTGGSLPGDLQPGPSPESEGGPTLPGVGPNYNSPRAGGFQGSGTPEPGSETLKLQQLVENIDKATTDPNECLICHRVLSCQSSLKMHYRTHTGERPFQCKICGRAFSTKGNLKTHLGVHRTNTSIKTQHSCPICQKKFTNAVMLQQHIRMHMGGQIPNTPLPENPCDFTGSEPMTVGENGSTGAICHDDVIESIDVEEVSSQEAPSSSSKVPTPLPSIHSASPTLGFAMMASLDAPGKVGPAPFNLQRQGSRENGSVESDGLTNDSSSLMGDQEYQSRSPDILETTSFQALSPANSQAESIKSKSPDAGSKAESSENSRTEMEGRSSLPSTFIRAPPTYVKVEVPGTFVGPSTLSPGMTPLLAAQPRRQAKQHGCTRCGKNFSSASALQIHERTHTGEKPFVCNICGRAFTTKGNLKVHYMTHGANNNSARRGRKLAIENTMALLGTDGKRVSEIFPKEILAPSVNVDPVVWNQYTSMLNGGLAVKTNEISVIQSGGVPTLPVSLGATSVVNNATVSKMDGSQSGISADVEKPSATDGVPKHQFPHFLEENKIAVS
Technique: universal PBM
Form: double-stranded DNA, one strand shown
Medium: in vitro
Tested at: 600 nM
Notes: 8-mer, flanks averaged, mean of replicates
Direction: higher = stronger binding
Quantity: E-score
GGGGGGTA: -0.329
AAGTCCAC: -0.172
AATAGCGG: -0.0323
AATCCGTC: 0.0281
AGGCGAGG: -0.248
GACTGTCA: -0.0708

Block 3
Target: Fragile X messenger ribonucleoprotein 1, C-terminal low-complexity region (Fmr1, Mus musculus, UniProt P35922)
Technique: RNA Bind-n-Seq
Form: RNA
Medium: in vitro
Tested at: 200 nM
Notes: whole 134-nt RNA, ends assumed
Together with: 150 mM KCl
Relative to: input library
Direction: higher = stronger binding
Quantity: log2 enrichment
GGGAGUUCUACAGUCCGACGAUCAAGUCCUGUGCUACACAUCGUAUGUACCGAAUCGGCCCCGGGGCCCCGGCCCCGGGGAAAGUAUUAUGUUACGCCGUUCGGAUCUGCACUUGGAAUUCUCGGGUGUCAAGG: -1.16
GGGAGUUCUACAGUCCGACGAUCUAACUUUAGAGGAGGAUCUGAUGGAUAUGGCAGUGGACGUGGAUUUGGGGAUGGCUAUAAUGGGUAUGGAGGAGGACCUGGAGAUGGCAAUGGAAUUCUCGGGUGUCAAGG: 0.265
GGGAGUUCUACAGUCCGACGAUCGCUGUUGGAGUGGAUCCGCCGCACAAUCCCGUGGCUGGAGAACCGGGUGCCCGAGAACACCAUGCAUGCCAUGCAACAGAAGCUGGAGGAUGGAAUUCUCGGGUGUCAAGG: -2.09
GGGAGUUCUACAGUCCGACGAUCGCAGGAAGUGAAAACAAAUGGAAAUGCUUCGGAUAGUGGCAGGGGUGGGGGUUGCUAAGGAAAGGGUGGGAUGGGAGUGGGUAAAGAGUUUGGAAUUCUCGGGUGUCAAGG: 0.178
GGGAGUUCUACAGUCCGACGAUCGCAGGAAAUAAAAACAAAUGGAAAUGCUUCGGAUAGUGGCAGGGGUGGGGGUUGCUAAGGAAAGGGUGGGAUGGGAGUGGGUAAAGAGUUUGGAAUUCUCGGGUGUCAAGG: 0.36
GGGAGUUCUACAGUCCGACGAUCAAGUCCUGUGCUACACAUCGUAUGUACCGAAUCGUGUGUGUGUGUGUGUGUGUGUGUAAAGUAUUAUGUUACGCCGUUCGGAUCUGCACUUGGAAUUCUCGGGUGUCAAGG: 0.459

Single results of other studies
PhoQ, residues 284 288 289 292 302 303 NLALSC — fold induction (PhoP, residues 12 14 15 18 19 MHTVL (Escherichia coli, UniProt P23836); Sort-seq, refers to: YFP reporter; E. coli; PhoQ-PhoP variant library, together with: 10 µM Mg2+; relative to: high Mg2+ state, higher = stronger signaling): 2.07

Some of these lines once more (block 3):
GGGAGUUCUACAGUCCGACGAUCGCAGGAAAUAAAAACAAAUGGAAAUGCUUCGGAUAGUGGCAGGGGUGGGGGUUGCUAAGGAAAGGGUGGGAUGGGAGUGGGUAAAGAGUUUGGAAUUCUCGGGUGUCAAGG: 0.36
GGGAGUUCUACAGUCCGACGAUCAAGUCCUGUGCUACACAUCGUAUGUACCGAAUCGGCCCCGGGGCCCCGGCCCCGGGGAAAGUAUUAUGUUACGCCGUUCGGAUCUGCACUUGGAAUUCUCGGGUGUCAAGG: -1.16
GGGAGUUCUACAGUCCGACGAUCGCAGGAAGUGAAAACAAAUGGAAAUGCUUCGGAUAGUGGCAGGGGUGGGGGUUGCUAAGGAAAGGGUGGGAUGGGAGUGGGUAAAGAGUUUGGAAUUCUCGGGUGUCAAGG: 0.178
